Measurements collected from several papers.
Each line is one published result; not all experiments were run side by side. ± marks the error that the study gave.
NR1I2: Nuclear receptor subfamily 1 group I member 2 (NR1I2, Homo sapiens, UniProt O75469)
Chain of UniProt O75469 (whole entry, looked up): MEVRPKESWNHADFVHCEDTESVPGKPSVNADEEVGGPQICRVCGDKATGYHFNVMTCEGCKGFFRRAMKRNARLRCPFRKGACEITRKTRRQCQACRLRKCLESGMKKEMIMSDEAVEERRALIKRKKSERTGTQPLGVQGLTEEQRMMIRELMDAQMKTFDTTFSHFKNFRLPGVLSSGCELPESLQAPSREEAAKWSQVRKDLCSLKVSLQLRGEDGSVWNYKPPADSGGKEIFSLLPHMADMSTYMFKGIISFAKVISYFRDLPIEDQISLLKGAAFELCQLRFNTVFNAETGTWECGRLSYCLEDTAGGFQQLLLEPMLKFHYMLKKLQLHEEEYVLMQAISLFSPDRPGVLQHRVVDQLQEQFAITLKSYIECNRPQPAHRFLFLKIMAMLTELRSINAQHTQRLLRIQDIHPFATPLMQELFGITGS
ALB: Albumin (ALB, Homo sapiens, UniProt P02768)
SLC22A2: Solute carrier family 22 member 2 (SLC22A2, Homo sapiens, UniProt O15244)
Chain of UniProt O15244 (whole entry, looked up): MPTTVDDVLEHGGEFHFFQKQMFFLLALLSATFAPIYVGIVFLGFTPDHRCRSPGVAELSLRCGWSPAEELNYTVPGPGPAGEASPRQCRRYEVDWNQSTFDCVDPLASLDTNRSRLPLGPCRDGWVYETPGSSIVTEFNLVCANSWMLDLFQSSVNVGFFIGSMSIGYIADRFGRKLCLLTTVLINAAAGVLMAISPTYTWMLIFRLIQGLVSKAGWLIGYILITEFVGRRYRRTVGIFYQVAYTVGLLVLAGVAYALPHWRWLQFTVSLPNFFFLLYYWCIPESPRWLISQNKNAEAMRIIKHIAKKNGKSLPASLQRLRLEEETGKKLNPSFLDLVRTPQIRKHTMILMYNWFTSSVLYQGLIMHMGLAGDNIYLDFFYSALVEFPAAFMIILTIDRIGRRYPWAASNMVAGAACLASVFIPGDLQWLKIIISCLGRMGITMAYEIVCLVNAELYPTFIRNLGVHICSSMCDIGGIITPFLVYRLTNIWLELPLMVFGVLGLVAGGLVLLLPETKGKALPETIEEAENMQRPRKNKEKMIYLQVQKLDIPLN
Chain of UniProt P08183 (whole entry, looked up): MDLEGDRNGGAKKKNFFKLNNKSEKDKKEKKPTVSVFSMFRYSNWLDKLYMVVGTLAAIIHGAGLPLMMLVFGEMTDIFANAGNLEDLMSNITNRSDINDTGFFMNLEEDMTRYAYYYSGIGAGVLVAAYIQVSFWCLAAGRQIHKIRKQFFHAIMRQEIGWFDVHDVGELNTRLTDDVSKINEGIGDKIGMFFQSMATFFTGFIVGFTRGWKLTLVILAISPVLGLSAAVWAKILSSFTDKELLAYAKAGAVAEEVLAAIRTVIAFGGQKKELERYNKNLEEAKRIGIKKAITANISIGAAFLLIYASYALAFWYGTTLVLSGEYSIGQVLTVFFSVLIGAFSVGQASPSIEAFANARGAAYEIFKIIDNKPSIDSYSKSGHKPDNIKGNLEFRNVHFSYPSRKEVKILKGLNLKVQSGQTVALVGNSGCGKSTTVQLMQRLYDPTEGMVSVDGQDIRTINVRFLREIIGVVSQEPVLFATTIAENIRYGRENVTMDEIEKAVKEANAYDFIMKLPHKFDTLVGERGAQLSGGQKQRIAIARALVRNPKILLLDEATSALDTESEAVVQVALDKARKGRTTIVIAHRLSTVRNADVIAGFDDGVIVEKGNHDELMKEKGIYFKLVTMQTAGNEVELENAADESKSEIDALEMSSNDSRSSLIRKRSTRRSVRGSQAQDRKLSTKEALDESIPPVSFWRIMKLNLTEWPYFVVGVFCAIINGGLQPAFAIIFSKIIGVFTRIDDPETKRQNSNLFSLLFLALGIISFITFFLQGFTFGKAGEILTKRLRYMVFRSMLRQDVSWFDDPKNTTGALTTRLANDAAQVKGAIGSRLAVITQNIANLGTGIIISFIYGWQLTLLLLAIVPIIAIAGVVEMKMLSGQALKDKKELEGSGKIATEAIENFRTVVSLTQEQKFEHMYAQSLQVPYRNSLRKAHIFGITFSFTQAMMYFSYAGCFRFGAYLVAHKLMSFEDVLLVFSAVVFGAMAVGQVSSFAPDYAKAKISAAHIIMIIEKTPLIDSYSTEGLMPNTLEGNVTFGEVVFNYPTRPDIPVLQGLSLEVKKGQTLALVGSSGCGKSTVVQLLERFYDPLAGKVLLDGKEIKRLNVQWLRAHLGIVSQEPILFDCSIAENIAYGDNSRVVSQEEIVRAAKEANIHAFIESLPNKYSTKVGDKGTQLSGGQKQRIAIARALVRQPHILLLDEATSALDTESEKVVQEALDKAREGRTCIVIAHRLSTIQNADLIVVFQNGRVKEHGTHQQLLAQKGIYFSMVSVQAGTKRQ
Chain of UniProt P11234 (whole entry, looked up): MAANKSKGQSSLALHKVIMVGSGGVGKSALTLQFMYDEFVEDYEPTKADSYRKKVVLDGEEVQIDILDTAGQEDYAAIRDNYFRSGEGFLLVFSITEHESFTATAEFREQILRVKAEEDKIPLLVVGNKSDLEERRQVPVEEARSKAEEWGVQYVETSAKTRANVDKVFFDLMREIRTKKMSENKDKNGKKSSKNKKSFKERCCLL
Chain of UniProt P07724 (whole entry, looked up): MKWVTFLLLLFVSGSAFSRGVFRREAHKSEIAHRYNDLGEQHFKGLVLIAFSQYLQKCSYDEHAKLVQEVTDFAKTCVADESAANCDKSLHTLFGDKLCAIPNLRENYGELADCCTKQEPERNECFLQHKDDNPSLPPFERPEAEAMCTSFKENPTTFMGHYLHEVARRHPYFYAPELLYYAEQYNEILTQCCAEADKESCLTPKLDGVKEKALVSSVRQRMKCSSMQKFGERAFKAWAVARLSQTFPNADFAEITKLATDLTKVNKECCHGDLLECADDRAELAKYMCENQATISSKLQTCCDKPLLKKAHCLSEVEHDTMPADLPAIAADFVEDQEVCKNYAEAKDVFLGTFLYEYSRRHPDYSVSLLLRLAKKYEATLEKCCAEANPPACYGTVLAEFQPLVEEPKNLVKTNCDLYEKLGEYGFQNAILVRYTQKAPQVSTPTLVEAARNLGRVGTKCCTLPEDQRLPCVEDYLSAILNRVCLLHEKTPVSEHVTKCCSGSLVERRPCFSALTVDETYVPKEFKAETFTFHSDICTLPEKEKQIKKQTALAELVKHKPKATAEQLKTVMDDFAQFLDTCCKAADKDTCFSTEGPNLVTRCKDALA
Chain of UniProt Q9NSA0 (whole entry, looked up): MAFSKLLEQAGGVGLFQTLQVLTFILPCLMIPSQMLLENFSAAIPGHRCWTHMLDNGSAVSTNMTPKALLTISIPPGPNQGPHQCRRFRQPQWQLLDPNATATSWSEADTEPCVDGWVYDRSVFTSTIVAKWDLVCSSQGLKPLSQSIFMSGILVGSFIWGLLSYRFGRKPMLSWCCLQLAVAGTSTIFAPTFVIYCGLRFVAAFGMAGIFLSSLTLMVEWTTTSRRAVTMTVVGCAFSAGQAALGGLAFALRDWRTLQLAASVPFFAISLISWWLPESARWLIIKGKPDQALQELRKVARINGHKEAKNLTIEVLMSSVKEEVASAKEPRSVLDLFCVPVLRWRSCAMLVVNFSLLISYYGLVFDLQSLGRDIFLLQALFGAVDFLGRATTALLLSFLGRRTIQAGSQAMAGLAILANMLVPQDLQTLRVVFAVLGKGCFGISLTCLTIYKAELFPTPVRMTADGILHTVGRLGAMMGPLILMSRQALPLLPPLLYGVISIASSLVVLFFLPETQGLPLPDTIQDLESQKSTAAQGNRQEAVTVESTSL

Compound	target	test	test system	conditions	how to read	endpoint	result
CCOc1ccc(-c2nc3ccc(-c4nc5ccc(N6CCN(C)CC6)cc5[nH]4)cc3[nH]2)cc1	Albumin (Mus musculus, UniProt P07724)	binding, second site, fluorescence titration	PBS	–	–	Kd	> 100 µM
Clc1ccc(Cl)c(-c2ccccc2Cl)c1	NR1I2	agonist, reporter gene	LS180 cells, transiently transfected	concentration not given	baseline: rifampicin response	PXR activation	> 50%
COc1cc(-c2[o+]c3cc(O)cc(O)c3cc2O[C@@H]2O[C@H](CO)[C@@H](O)[C@H](O)[C@H]2O)cc(OC)c1O	ALB	binding, visible absorption spectroscopy	–	pH 7, with: HSA 200 µM	–	Kd	50.8 ± 1.96 µM
CCCC[C@H]1C(=O)N(C)[C@@H](CCCC)C(=O)N[C@@H](CCCCNC(=O)CN2CCN(CC(=O)O)CCN(CC(=O)O)CC2)C(=O)N[C@H](C(=O)NCC(N)=O)CSCC(=O)N[C@@H](Cc2ccc(O)cc2)C(=O)N(C)[C@@H](C)C(=O)N[C@@H](CC(N)=O)C(=O)N2CCC[C@H]2C(=O)N[C@@H](Cc2c[nH]cn2)C(=O)N[C@@H](CCC(=O)O)C(=O)N2C[C@H](O)C[C@H]2C(=O)N[C@@H](Cc2c[nH]c3ccccc23)C(=O)N[C@@H](CO)C(=O)N[C@@H](Cc2cn(CC(=O)O)c3ccccc23)C(=O)N1C [gallium-68 labelled]	Programmed cell death 1 ligand 1 (CD274, Homo sapiens, UniProt Q9NZQ7)	PET	humanised NOG-EXL mice, U-87 MG xenograft	day D7 after antibody, with: anti-PD-L1 antibody 10 mg/kg	–	tumour uptake	1.7 %ID/g
CCC(CC)COC(=O)[C@H](C)N[P@](=O)(OC[C@H]1O[C@@](C#N)(c2ccc3c(N)ncnn23)[C@H](O)[C@@H]1O)Oc1ccccc1	SLC22A2	transport, inhibitor	transiently transfected cells	100 µM, 10 (unit not given), with: metformin	–	inhibition	30.8%
CC(C)(C)C(=O)C1C(=O)c2ccccc2C1=O	NR1I2	–	–	concentration not given	–	activity	inactive
O=C(Nc1c2c(cc3c1CCC3)CCC2)NS(=O)(=O)/C=C/c1nccs1	human CYP3A4	–	human liver microsomes	2 µM, pH 7.4, with: midazolam	–	inhibition	< 0%
CC1(C)[C@H](C(=O)OCc2cccc(Oc3ccccc3)c2)[C@@H]1C=C(Cl)Cl	human CYP2C19	IVIVE from expressed enzymes	human, liver, in vivo scaled	0.1 µM, age-specific	–	enzyme contribution to CLint	3.51%
CC[C@H]1OC(=O)[C@H](C)[C@@H](O[C@H]2C[C@@](C)(OC)[C@@H](O)[C@H](C)O2)[C@H](C)[C@@H](O[C@@H]2O[C@H](C)C[C@H](N(C)C)[C@H]2O)[C@](C)(O)C[C@@H](C)CN(C)[C@H](C)[C@@H](O)[C@]1(C)O	SLC22A2	transport, inhibitor	–	50 µM, 10 (unit not given), with: metformin	–	inhibition	-25.5%
CC[C@H](C)[C@H](NC(=O)[C@H](CCCCN)NC(=O)[C@H](CCCCN)NC(=O)CNC(=O)[C@H](CCCCN)NC(=O)[C@H](CC(C)C)NC(=O)[C@H](CCCCN)NC(=O)[C@H](CCCNC(=N)N)NC(=O)[C@@H](NC(=O)[C@H](CC(C)C)NC(=O)[C@H](CCCNC(=N)N)NC(=O)[C@@H](N)CCCNC(=N)N)[C@@H](C)CC)C(=O)N[C@@H](Cc1ccc(O)cc1)C(=O)N[C@@H](CC(C)C)C(=O)N[C@@H](Cc1ccc(O)cc1)C(=O)N[C@@H](Cc1ccccc1)C(=O)N[C@@H](CCCCN)C(=O)N[C@@H](CC(C)C)C(=O)N[C@@H](CCC(N)=O)C(=O)N[C@@H](CC(C)C)C(=O)N[C@@H](CC(C)C)C(=O)N[C@@H](CCCCN)C(=O)N[C@@H](CCCCN)C(N)=O	Chymotrypsinogen A (Bos taurus, UniProt P00766)	substrate, HPLC	–	150 µM, pH 7.4, 37 °C, with: chymotrypsin 0.1 µg/mL	–	time to near-complete degradation	18 to 20 h
O=C1NC2(CCC2)C(=O)N1c1ccc(F)c(C(F)(F)F)c1	ALB	–	–	–	–	unbound fraction	0.329
CN(C)C(=O)COC(=O)Cc1ccc(OC(=O)c2ccc(NC(=N)N)cc2)cc1	SLC22A2	transport, inhibitor	transiently transfected cells	100 µM, 10 (unit not given), with: metformin	–	inhibition	34%
CC[C@H](C)[C@H](NC(=O)[C@H](CCCCN)NC(=O)[C@H](CCC(=O)O)NC(=O)[C@H](CCCCN)NC(=O)[C@H](CO)NC(=O)[C@H](CCCCN)NC(=O)[C@H](CCCNC(=N)N)NC(=O)[C@H](Cc1ccccc1)NC(=O)[C@H](Cc1ccccc1)NC(=O)[C@H](CC(=O)O)NC(=O)CNC(=O)[C@H](CC(C)C)NC(=O)[C@@H](N)CC(C)C)C(=O)NCC(=O)N[C@@H](CCCCN)C(=O)N[C@@H](CCC(=O)O)C(=O)N[C@@H](Cc1ccccc1)C(=O)N[C@@H](CCCCN)C(=O)N[C@@H](CCCNC(=N)N)C(=O)N[C@H](C(=O)N[C@H](C(=O)N[C@@H](CCC(N)=O)C(=O)N[C@@H](CCCNC(=N)N)C(=O)N[C@H](C(=O)N[C@@H](CCCCN)C(=O)N[C@@H](CC(=O)O)C(=O)N[C@@H](Cc1ccccc1)C(=O)N[C@@H](CC(C)C)C(=O)N[C@@H](CCCNC(=N)N)C(=O)N[C@@H](CC(N)=O)C(=O)N[C@@H](CC(C)C)C(=O)N[C@H](C(=O)N1CCC[C@H]1C(=O)N[C@@H](CCCNC(=N)N)C(=O)N[C@H](C(=O)N[C@@H](CCC(=O)O)C(=O)N[C@@H](CO)C(=O)O)[C@@H](C)O)C(C)C)[C@@H](C)CC)C(C)C)[C@@H](C)CC	trypsin	LC-MS	–	40 µM, 60 min, pH 7.5, 37 °C	baseline: 0 h	remaining intact peptide	4.29%
CCOC(=O)c1c(CSc2ccccc2)n(C)c2cc(Br)c(O)c(CN(C)C)c12	SLC22A2	transport, inhibitor	transiently transfected cells	100 µM, 10 (unit not given), with: metformin	–	inhibition	86.2%
Cc1c(COC(=O)[C@@H]2[C@H](/C=C(\Cl)C(F)(F)F)C2(C)C)cccc1-c1ccccc1 (racemic)	human CYP2C19	IVIVE from expressed enzymes	human, liver, in vivo scaled	0.1 µM, age-specific	–	enzyme contribution to CLint	53.9%
COc1ccc2cc1Oc1ccc(cc1)C[C@H]1c3cc(c(OC)cc3CCN1C)Oc1c(OC)c(OC)cc3c1[C@H](C2)N(C)CC3	SLC22A2	transport, inhibitor	–	10 µM, with: Metformin	–	inhibition	-5.9%
OC[C@H]1O[C@@H](Oc2cc3c(O)cc(O)cc3[o+]c2-c2cc(O)c(O)c(O)c2)[C@H](O)[C@@H](O)[C@@H]1O	ALB	binding, fluorescence quenching	–	pH 7, 20 °C, HSA 2 µM	–	Kd	10.8 ± 0.14 µM
CO[C@H]1C[C@H](O[C@@H]2/C(C)=C/C[C@@H]3C[C@@H](C[C@]4(CC[C@H](C)[C@@H](C5CCCCC5)O4)O3)OC(=O)[C@@H]3C=C(C)/C(=N/O)[C@H]4OC/C(=C\C=C\[C@@H]2C)[C@]43O)O[C@@H](C)[C@@H]1O	NR1I2	–	–	concentration not given	–	activity	inactive
O=S(=O)(F)c1ccc(S(=O)(=O)Nc2cc(F)cc(C3CC3)c2)c2c1CCCC2	RALB (Homo sapiens, UniProt P11234)	covalent labelling	–	4 °C, protein 2 µM	–	reaction half-life	10 h
O=C1CCC(N2C(=O)c3ccccc3C2=O)C(=O)N1 (stereo not shown)	SLC22A2	transport, inhibitor	transiently transfected cells	100 µM, 10 (unit not given), with: metformin	–	inhibition	17.6%
Clc1ccccc1-c1ccccc1Cl	NR1I2	agonist, refers to: CYP3A4	differentiated HepaRG	concentration not given, 24 h	baseline: maximum rifampicin induction	mRNA level	< 20%
CC(C)[C@H](C(=O)O[C@H](C#N)c1cccc(Oc2ccccc2)c1)c1ccc(Cl)cc1	human CYP2C19	IVIVE from expressed enzymes	human, liver, in vivo scaled	age-specific	–	enzyme contribution to CLint	3.02%
CCS(=O)(=O)N1CC(CC#N)(n2cc(-c3ncnc4[nH]ccc34)cn2)C1	SLC22A2	transport, inhibitor	–	50 µM, 10 (unit not given), with: metformin	–	inhibition	47.5%
O=C1c2ccccc2C(=O)C1c1ccccc1	NR1I2	–	–	concentration not given	–	activity	inactive
O=C(O)C(F)(F)C(F)(F)C(F)(F)C(F)(F)C(F)(F)C(F)(F)C(F)(F)F	Solute carrier family 22 member 11 (SLC22A11, Homo sapiens, UniProt Q9NSA0)	uptake, substrate	HEK293 cells stably expressing SLC22A11, HBSS with HEPES	pH 6.8	–	CLint	30.2 ± 11 µL/min/mg
NC(=O)c1ncn([C@@H]2O[C@H](CO)[C@@H](O)[C@H]2O)n1	SLC22A2	transport, inhibitor	transiently transfected cells	100 µM, 10 (unit not given), with: metformin	–	inhibition	-8.2%
C[C@@H](c1ccc2nccn2c1)n1nnc2ncc(-c3cnn(C)c3)nc21	CYP3A4/5 (human)	enzyme activity, inhibitor	pooled human liver microsomes	pH 7.4, with: midazolam substrate	–	IC50	50 µM
CC(C)CC(=O)OC[C@H]1O[C@@](C#N)(c2ccc3c(N)ncnn23)[C@H](O)[C@@H]1O	ATP-dependent translocase ABCB1 (ABCB1, Homo sapiens, UniProt P08183)	–	Caco-2	concentration not given, 2 h	–	efflux rate	< 10%

A few entries again:
Compound	target	test	test system	conditions	how to read	endpoint	result
CCC(CC)COC(=O)[C@H](C)N[P@](=O)(OC[C@H]1O[C@@](C#N)(c2ccc3c(N)ncnn23)[C@H](O)[C@@H]1O)Oc1ccccc1	SLC22A2	transport, inhibitor	transiently transfected cells	100 µM, 10 (unit not given), with: metformin	–	inhibition	30.8%
CC[C@H](C)[C@H](NC(=O)[C@H](CCCCN)NC(=O)[C@H](CCC(=O)O)NC(=O)[C@H](CCCCN)NC(=O)[C@H](CO)NC(=O)[C@H](CCCCN)NC(=O)[C@H](CCCNC(=N)N)NC(=O)[C@H](Cc1ccccc1)NC(=O)[C@H](Cc1ccccc1)NC(=O)[C@H](CC(=O)O)NC(=O)CNC(=O)[C@H](CC(C)C)NC(=O)[C@@H](N)CC(C)C)C(=O)NCC(=O)N[C@@H](CCCCN)C(=O)N[C@@H](CCC(=O)O)C(=O)N[C@@H](Cc1ccccc1)C(=O)N[C@@H](CCCCN)C(=O)N[C@@H](CCCNC(=N)N)C(=O)N[C@H](C(=O)N[C@H](C(=O)N[C@@H](CCC(N)=O)C(=O)N[C@@H](CCCNC(=N)N)C(=O)N[C@H](C(=O)N[C@@H](CCCCN)C(=O)N[C@@H](CC(=O)O)C(=O)N[C@@H](Cc1ccccc1)C(=O)N[C@@H](CC(C)C)C(=O)N[C@@H](CCCNC(=N)N)C(=O)N[C@@H](CC(N)=O)C(=O)N[C@@H](CC(C)C)C(=O)N[C@H](C(=O)N1CCC[C@H]1C(=O)N[C@@H](CCCNC(=N)N)C(=O)N[C@H](C(=O)N[C@@H](CCC(=O)O)C(=O)N[C@@H](CO)C(=O)O)[C@@H](C)O)C(C)C)[C@@H](C)CC)C(C)C)[C@@H](C)CC	trypsin	LC-MS	–	40 µM, 60 min, pH 7.5, 37 °C	baseline: 0 h	remaining intact peptide	4.29%
